# Measurements pooled from the literature.
# A part holds a random share of what one study measured.

# Series 1 — technique: aptamer microarray, sandwich; form: DNA with 2'F-ANA; matrix: in vitro; tested at: 200 nM; with: Cy3 exosite-II aptamer, 400 nM; direction: higher = stronger binding; oligonucleotide: GGTTGGTGTGGTTGG
# Target: Prothrombin, mature alpha-thrombin (F2, Homo sapiens, UniProt P00734)
# Setting: whole 15-mer aptamer, many near background
Modification,mean fluorescence intensity [a.u.]
2'F-ANA at 2 3 4 5 8 10 15,64.8
2'F-ANA at 1 9 11 15,152
2'F-ANA at 2 3 7 9 11 12 14 15,400
2'F-ANA at 1 2 3 5 6 7 10 12 13,50.8
2'F-ANA at 1 2 4 5 6 8 10 13 14,49.1
2'F-ANA at 2 3 4 5 6 7 8 11 12 13 14,53.4
2'F-ANA at 5 7 11 15,70.4
2'F-ANA at 2 3 7 11 15,850
2'F-ANA at 7 12 13 14 15,239
2'F-ANA at 1 3 6 8 9 10 11 13 14,61.8
2'F-ANA at 2 5 10 12 13 14,188
2'F-ANA at 1 4 9 10 13 15,49.6
2'F-ANA at 2 3 5 7 8 9 11 12 13 14,62.7
2'F-ANA at 1 2 5 6 8 12,118
2'F-ANA at 1 2 3 4 5 6 7 10 11 13,52.7
2'F-ANA at 1 3 4 7 10 11 12 13 14 15,51.5
2'F-ANA at 1 2 3 6 8 9 10 12 13,79.5
2'F-ANA at 2 3 4 5 8 9 12 14 15,58.6
2'F-ANA at 1 3 7 8 9 10 11 12 13 15,127
2'F-ANA at 1 2 3 4 8 9 10 13,52.2
2'F-ANA at 1 3 4 5 6 8 9 10 13 15,48.5

# Series 2 — technique: protein-binding microarray; form: double-stranded DNA, one strand shown; matrix: in vitro; tested at: 2540 nM top; setting: 60-bp whole probe; with: salmon DNA 0.4 mg/ml; relative to: random background probes; direction: higher = stronger binding; constant ends, left off below: GCCTAGCAC … GTCTTGATTCGCTTGACGCTGCTG
# Target: Interferon regulatory factor 3, full length, phosphomimetic (IRF3, Homo sapiens, UniProt Q14653, residues 1-427, S386D/S396D/S398D/S402D/T404D/S405D)
# Residues (chain): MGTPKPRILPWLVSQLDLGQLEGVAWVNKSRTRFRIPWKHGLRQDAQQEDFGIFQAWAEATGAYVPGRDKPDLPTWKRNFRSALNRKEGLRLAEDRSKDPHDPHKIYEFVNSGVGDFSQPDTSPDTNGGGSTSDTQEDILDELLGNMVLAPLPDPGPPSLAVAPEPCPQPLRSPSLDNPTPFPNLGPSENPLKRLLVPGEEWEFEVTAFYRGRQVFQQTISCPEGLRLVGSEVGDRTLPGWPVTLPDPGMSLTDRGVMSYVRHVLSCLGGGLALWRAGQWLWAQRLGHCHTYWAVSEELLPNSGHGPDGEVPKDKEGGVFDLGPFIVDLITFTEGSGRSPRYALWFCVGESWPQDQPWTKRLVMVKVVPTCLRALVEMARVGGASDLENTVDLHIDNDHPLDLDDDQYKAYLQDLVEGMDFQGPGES
Oligonucleotide,fitted relative affinity
TTAGATCACAGTATCGATTAGTGCTAG,1.04 z-score
GACGGACTGGGGACTGGGGATGTGCTA,-0.908 z-score
TCAATGATTGGTTGAACACTGTGCTAG,-0.653 z-score
GACGGACTGGGGTTTCGGAACGTGCTA,2.69 z-score
GACGCTATCGGGTATCGGGACGTGCTA,0.331 z-score
GACGAACTGAGACTGGAGCCGTGCTAG,-0.245 z-score
GACGGTATCCTTATCCGGACGTGCTAG,5.69 z-score
TACGATCTCAGTATCGAGACGTGCTAG,0.948 z-score
TTAGGACAGGACTATCGGTTAGTGCTA,-0.111 z-score
TCACTCGTCTCTATCAAACTGTGCTAG,0.175 z-score
TGGAGCCTAAGGTTTAGGCTCGTGCTA,-0.595 z-score
TTGGGACTGGGTCTCGGTTAGTGCTAG,-1.09 z-score
TTAGGTATCGGTTTCTGTTAGTGCTAG,6.97 z-score
GACGGACTGTTTATCCTGACGTGCTAG,0.623 z-score
TCACTCCTCCTTCTCTAACTGTGCTAG,1.89 z-score
AATGCCCTCGGTTTACAGGGGTGCTAG,-0.248 z-score
TTAGGTTTCGGACTGGGGTAGTGCTAG,4.08 z-score
GGGCCCATCATTCCGACCCTGTGCTAG,-0.138 z-score

# Series 3 — technique: RNA Bind-n-Seq; form: RNA; matrix: in vitro; tested at: 365 nM; relative to: no-protein control; direction: higher = stronger binding
# Target: RNA binding protein fox-1 homolog 2, RRM domain, GST-SBP tag (RBFOX2, Homo sapiens, UniProt O43251-10, residues 100-194)
# Setting: natural RNA segment, single round, ends assumed
# Construct (chain): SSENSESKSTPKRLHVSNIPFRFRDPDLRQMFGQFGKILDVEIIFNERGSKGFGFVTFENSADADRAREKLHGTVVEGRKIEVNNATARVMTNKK
Oligonucleotide,RBNS enrichment (R)
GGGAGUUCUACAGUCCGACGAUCUUCCCACGGCCCAGUCCUCGCUGCAGUAACCCCUGGGGGCUCUGACCACCUAUGGGGGCCGGGCAGGAGCCUCUGGGGCCUCCACUCCGACAUCAGGACCUGAGAUGACCUGGAAUUCUCGGGUGCCAA,0.372
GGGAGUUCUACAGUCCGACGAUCAUUUGUCAUCGGUCAUUAGCCUCCCUCUGUGCUCCCUGGCACUCUUAAUAUAGAUUGAACCAGAAAGGUGACCCCUAGCUGUUGACUUAUUGUCACCCUAAAAAAAAAAAUGGAAUUCUCGGGUGCCAA,0.374
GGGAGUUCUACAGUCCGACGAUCCAAACUGAAGGUAACUAUACCUAGACUUAAAUCCUAAGGAAGCAAGUUACCUUCUGGGCAAAGGCUGCCUUCCCACCCUUCCUUUCACGGCACCACACUACAUCCCCAUGUGGAAUUCUCGGGUGCCAA,0.335
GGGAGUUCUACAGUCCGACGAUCCUUAGAGGUCUGGGGCUGGAAGUCCAGACGGCGCAGGAGCAGUGUUGGGAAGGCUUUGCGUCCUGCCUGCAGACUUGCUAGAGCUGUGGUGAUUAACCCUGGCUGUUGAAUGGAAUUCUCGGGUGCCAA,0.287
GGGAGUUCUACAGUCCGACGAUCGAUGUACUAGCUAAAGUCUCUUUAUGUGUCAGUAUUAAGAGUAAUAUGUAGCCAGAUUACUUAAAUCUCAGAAUUACUAAGCAUGUGGCAUAAAUUUGGAGAAAAUAAUAUGGAAUUCUCGGGUGCCAA,19.2
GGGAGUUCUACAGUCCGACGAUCUUCCGACUUUUCAAAAAUUUGAUUAAAUGGUUUUAUAGUAUAAUAUUGGGACCCCAUACCGUUAGCCCUUGUAUGUAUACCAACACUGCCAAAGUAAAACAUUAGGUCAGUGGAAUUCUCGGGUGCCAA,0.691
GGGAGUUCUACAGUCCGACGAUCGGAGGGGAUCCACACAGCUGCAACGUGAGGACAGAAUCAGUGCUGUGAAUGACAGCCUGCCACUCCCUGCCACAGGACUCCCUGUGAGCUGUACAGAGGACCAUGGAGCCUGGAAUUCUCGGGUGCCAA,0.547
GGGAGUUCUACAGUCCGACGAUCGCAUGGAGAGAUGGUCAUUUCGUGGUCUACUGGAUGAGGCCUAUAGUUGAGACUUGUAGACAUUUAUUUAUACUGUGUCAUGUUUUAUAAUUUAUACAUAAAAUGUCUGGUGGAAUUCUCGGGUGCCAA,30.5
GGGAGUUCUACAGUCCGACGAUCAUUGUUUGCUUAAACUUUGAAGAAAUAUGUGCCUCAGCUUAGAUGUUUUGUCUUCCCCUUUCUGCACUUAAAUACCUGACAGCCUGUUCGAUCGCUGUGCCUCCGAGGGCUGGAAUUCUCGGGUGCCAA,0.789
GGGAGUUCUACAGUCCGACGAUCGUUAGGCUGUUCUCCUGAGCUGCAGGUGCCCAGGUCUGACUCUCCUUCUCUGCUUAUCCCCAGGCAGCAGAUGCUGAGCUUCCCCCACCUCCUGCAGACAGUGCUGCACAUGGAAUUCUCGGGUGCCAA,0.571
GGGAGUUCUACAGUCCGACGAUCACAAGCCAGCUGGCUUAUGCUGGUUCUCAGCUGUUUAAAAAAAAAAAAAAAAAGGAAUAGAAACAGUUUCAACCAGAUUGUCCUAUUCCCCCUGUUCCAUUCCCCUCUUCUGGAAUUCUCGGGUGCCAA,0.35
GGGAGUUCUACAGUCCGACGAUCAAAUAAUAUGUGUAAAUUGAAAUUUUUUUCAUUUUUAAGUUAUCAGGCACUUUUCAUGCUGUUUAAAAGACUGUGUAUCAAAUUGUGCACUUUAAGUAUGUGCAGUUUGUUGGAAUUCUCGGGUGCCAA,0.331

# Series 4 — technique: protein binding microarray; form: double-stranded DNA, one strand shown; matrix: in vitro; tested at: not given; relative to: not given; direction: higher = stronger binding
# Target: Histone acetyltransferase KAT6A, both winged helices, GST fusion (KAT6A, Homo sapiens, UniProt Q92794, residues 1-181)
# Setting: 8-mer, flanks averaged, mean of 2 arrays, mostly near background
# Residues (chain): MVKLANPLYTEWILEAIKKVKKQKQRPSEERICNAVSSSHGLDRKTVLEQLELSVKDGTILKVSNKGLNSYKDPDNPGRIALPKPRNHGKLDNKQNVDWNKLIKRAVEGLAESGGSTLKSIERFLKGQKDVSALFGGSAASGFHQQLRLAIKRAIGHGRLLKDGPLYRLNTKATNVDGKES
Oligonucleotide,E-score
AAACCACA,-0.0737
CGCCATAA,0.0749
GATACAAC,0.0817
AGGACAAG,-0.194
AGATCAGC,0.0292
CTCGAAGA,-0.0937
CAGTGACG,0.0054
AAAGCTCT,-0.0698
GAAATTAA,-0.0132
AGGGGTTA,-0.242
GCCGCCTA,0.214
ATTCAGTA,-0.0407
GGGAGGAC,-0.00808
AAAGCCCC,-0.214
GCTAATCC,0.066
ATAGAAAT,-0.0573
ACTTCATG,-0.0131
CCCACGCG,0.238

# Series 5 — technique: protein-binding microarray; form: double-stranded DNA, one strand shown; matrix: in vitro; tested at: not given; direction: higher = stronger binding
# Target: Transcription factor Sp1 (SP1, Homo sapiens, UniProt P08047, residues 1-785, full length assumed)
# Sequence of UniProt P08047 (whole entry, looked up): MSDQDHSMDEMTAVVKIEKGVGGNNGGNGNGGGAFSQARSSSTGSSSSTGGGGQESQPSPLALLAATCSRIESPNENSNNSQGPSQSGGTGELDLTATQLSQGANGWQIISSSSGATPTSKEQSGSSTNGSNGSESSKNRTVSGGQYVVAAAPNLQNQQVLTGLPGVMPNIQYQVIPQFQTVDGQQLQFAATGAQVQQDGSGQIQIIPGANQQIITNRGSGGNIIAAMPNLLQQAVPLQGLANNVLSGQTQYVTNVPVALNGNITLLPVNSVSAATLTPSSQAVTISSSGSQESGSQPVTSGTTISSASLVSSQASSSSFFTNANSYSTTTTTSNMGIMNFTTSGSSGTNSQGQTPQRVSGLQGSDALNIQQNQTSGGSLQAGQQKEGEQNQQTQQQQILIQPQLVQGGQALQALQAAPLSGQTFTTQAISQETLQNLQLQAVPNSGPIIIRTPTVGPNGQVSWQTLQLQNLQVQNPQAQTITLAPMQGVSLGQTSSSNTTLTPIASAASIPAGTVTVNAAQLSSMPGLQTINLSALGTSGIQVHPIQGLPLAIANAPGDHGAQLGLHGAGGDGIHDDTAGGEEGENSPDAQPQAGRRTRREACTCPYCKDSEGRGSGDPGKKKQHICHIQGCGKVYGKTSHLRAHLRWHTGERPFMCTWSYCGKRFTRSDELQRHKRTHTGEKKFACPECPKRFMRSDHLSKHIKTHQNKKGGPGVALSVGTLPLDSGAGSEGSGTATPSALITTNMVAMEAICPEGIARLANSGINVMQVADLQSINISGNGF
# Setting: k-mer, scored over probes, only values ≥0.25
Oligonucleotide,E-score
GCGTATAC,0.264
AAGGCGGG,0.323
AATGTAGT,0.251
CCCCTCAC,0.391
ATACGTAT,0.271
ACATATCA,0.338
CCCCCTGC,0.302
GGGCGGAC,0.272
ACCGCCCA,0.32
AACCCCAA,0.254
CGCCCACC,0.491
CCCCATCC,0.329
CACCCCCA,0.293
CCCCCCTC,0.317
GGGGAGTA,0.334
ACATAGCA,0.283
GGGGTATA,0.295

# For quick reference, copied from above (series 2):
Oligonucleotide,fitted relative affinity
GACGGACTGGGGTTTCGGAACGTGCTA,2.69 z-score
GACGCTATCGGGTATCGGGACGTGCTA,0.331 z-score
GACGAACTGAGACTGGAGCCGTGCTAG,-0.245 z-score
GACGGTATCCTTATCCGGACGTGCTAG,5.69 z-score
TACGATCTCAGTATCGAGACGTGCTAG,0.948 z-score
TTAGGACAGGACTATCGGTTAGTGCTA,-0.111 z-score
TCACTCGTCTCTATCAAACTGTGCTAG,0.175 z-score
